Results gathered from unrelated publications.
Every numbered part comes from another study and shows a few of its results, in no order.
Sequence of UniProt Q13557 (whole entry, looked up): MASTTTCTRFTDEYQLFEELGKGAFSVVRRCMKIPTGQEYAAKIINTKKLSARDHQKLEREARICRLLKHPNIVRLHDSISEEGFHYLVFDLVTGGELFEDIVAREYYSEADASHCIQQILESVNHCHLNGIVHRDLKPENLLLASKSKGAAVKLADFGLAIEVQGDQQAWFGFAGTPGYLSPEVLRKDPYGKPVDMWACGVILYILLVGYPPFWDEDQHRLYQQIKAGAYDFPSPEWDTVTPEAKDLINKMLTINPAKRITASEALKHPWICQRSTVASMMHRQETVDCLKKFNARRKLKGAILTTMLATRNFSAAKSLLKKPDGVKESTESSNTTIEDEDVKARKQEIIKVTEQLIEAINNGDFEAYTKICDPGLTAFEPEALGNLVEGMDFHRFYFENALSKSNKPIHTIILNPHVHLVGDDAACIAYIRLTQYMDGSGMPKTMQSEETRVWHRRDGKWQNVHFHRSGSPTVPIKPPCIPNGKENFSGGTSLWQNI
Sequence of UniProt Q6NV75 (whole entry, looked up): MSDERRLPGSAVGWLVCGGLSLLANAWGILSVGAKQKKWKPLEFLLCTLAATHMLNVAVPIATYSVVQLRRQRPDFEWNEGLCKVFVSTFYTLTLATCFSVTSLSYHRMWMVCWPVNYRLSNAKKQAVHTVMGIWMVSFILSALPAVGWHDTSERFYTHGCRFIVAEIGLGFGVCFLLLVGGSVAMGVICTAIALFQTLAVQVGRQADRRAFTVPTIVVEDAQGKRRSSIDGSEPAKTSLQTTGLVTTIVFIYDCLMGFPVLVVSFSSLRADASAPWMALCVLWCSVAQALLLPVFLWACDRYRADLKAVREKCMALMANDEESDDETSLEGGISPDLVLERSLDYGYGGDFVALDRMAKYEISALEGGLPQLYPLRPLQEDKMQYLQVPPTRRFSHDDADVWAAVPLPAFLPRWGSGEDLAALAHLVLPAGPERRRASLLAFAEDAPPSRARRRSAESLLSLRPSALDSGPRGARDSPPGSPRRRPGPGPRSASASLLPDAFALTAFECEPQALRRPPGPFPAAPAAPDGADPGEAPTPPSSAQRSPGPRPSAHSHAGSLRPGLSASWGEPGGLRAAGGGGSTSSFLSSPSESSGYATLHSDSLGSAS
Sequence of UniProt P42338 (whole entry, looked up): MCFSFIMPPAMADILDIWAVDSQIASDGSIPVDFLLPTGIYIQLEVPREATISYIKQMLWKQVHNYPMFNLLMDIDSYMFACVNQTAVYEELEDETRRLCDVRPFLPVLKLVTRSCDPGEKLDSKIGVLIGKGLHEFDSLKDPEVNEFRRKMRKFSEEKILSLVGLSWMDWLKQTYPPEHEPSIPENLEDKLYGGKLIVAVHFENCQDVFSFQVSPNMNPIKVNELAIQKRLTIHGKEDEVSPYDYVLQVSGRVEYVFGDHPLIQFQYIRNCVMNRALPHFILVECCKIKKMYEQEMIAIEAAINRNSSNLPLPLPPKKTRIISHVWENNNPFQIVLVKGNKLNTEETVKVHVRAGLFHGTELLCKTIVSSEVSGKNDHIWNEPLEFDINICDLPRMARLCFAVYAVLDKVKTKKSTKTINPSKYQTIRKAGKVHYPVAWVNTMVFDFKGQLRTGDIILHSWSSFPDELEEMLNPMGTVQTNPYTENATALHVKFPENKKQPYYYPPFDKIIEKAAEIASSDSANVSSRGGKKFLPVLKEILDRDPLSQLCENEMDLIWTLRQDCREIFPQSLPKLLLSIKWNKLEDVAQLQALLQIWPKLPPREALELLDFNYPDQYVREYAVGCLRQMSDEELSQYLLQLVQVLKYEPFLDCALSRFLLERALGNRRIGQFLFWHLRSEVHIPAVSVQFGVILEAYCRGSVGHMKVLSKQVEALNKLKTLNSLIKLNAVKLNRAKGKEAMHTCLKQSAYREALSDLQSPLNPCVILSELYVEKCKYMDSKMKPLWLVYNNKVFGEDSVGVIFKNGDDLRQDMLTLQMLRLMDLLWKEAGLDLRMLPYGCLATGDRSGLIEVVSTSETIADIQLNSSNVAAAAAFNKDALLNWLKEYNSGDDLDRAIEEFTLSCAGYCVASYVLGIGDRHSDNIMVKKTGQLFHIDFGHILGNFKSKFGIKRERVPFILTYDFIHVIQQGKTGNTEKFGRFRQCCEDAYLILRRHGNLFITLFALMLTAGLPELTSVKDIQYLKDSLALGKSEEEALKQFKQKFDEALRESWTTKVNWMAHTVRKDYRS
Sequence of UniProt P05771 (whole entry, looked up): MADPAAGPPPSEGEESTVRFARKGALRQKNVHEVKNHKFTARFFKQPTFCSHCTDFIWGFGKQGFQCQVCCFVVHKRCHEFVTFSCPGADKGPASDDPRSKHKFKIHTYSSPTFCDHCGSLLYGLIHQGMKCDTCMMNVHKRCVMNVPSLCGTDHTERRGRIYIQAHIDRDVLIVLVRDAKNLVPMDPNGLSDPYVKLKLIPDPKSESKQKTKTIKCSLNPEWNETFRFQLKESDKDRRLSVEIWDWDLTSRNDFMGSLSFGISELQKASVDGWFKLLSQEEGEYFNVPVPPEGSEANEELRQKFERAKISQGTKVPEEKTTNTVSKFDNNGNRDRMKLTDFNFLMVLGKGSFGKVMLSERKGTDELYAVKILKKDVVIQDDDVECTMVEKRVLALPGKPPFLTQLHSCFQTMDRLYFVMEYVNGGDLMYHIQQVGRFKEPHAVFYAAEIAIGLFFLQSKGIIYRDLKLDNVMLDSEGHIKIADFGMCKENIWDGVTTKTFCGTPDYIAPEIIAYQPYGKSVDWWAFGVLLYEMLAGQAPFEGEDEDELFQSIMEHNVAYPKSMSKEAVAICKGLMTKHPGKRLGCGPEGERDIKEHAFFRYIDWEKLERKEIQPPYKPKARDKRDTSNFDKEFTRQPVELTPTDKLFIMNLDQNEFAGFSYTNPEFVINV
Sequence of UniProt Q96RR4 (whole entry, looked up): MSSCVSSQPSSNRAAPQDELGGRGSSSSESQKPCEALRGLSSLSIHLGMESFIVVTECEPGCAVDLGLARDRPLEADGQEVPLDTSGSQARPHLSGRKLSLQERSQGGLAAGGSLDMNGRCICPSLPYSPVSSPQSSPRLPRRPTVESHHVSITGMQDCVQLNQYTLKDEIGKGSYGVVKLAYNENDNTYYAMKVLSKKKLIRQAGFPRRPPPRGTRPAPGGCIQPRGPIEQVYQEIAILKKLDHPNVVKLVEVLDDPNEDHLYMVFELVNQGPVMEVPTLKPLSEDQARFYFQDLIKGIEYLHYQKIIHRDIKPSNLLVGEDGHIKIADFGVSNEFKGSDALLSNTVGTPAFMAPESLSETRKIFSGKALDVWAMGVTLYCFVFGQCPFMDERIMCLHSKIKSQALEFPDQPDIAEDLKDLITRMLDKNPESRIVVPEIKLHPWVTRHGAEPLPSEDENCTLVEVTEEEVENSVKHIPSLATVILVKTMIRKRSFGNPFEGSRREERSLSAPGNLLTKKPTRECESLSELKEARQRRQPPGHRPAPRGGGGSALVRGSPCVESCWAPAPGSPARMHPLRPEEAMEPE
Sequence of UniProt Q9UBE8 (whole entry, looked up): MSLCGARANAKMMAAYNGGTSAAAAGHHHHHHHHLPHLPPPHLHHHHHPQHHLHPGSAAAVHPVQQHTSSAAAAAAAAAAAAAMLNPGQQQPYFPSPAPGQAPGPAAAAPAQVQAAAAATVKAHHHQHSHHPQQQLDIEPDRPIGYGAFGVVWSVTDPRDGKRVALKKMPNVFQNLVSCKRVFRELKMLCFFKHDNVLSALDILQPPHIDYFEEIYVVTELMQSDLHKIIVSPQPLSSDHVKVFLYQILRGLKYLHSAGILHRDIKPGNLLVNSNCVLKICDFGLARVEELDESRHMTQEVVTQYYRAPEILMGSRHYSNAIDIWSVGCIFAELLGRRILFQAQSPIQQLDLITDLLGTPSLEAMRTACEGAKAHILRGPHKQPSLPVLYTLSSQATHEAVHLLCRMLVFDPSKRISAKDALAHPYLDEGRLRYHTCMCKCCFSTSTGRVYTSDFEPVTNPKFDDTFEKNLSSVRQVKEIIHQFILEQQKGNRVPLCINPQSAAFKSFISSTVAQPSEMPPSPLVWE
Sequence of UniProt O96017 (whole entry, looked up): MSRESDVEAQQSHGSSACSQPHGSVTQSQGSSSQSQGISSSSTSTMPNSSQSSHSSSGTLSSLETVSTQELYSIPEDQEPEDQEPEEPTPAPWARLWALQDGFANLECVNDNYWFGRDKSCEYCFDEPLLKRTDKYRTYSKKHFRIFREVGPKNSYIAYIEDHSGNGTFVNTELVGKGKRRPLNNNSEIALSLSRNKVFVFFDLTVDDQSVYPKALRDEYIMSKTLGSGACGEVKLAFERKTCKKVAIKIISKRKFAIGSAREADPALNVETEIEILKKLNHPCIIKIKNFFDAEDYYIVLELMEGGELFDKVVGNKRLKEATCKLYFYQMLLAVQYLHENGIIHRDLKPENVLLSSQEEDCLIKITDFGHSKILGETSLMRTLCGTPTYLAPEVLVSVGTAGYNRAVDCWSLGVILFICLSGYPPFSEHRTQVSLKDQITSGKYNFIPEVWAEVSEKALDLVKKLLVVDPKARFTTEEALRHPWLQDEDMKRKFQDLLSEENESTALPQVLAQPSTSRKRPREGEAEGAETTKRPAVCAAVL
Sequence of UniProt Q15831 (whole entry, looked up): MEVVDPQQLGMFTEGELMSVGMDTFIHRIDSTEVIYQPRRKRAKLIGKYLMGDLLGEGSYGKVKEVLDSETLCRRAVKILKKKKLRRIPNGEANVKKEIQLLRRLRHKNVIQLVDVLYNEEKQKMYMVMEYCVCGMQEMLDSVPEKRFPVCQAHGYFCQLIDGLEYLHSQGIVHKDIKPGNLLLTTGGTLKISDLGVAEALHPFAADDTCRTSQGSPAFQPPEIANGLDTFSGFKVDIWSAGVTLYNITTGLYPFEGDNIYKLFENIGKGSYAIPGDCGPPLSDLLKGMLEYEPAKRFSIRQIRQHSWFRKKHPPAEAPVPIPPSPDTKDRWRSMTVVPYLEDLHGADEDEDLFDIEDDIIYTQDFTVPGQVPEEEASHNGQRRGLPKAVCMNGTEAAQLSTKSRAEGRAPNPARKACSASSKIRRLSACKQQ

Study 1
SMILES: CCC(=O)N[C@H]1CC[C@@H](C(=O)N(C)c2ccc(-c3nc4ccccc4o3)cc2)C1
Observed: cell-free assay
Technique: competition with immobilised ligand
Concentration: 1 µM
target	remaining binding [%]
NLK (Homo sapiens, UniProt Q9UBE8)	87
CAMK2D (Homo sapiens, UniProt Q13557)	91
CAMK4 (Homo sapiens, UniProt Q16566)	88
PIK3CB (Homo sapiens, UniProt P42338)	100
CDK11B (Homo sapiens, UniProt P21127)	99
MYLK4 (Homo sapiens, UniProt Q86YV6)	100

Study 2
Cell line: HaCaT
Concentration: 100 µM
Time: 18 h
SMILES	viability [%]
Nc1cccc2c1C(=O)N(C1CCC(=O)NC1=O)C2=O (stereo not shown)	116
C=C(c1ccc(C(=O)O)cc1)c1cc2c(cc1C)C(C)(C)CCC2(C)C	20.5
NC(=O)OCC(COC(N)=O)c1ccccc1	108
NNc1nnc(NN)c2ccccc12	108
Cc1[nH]c(=O)c(C#N)cc1-c1ccncc1	107
CCN(CCCCOC(=O)c1ccc(OC)c(OC)c1)C(C)Cc1ccc(OC)cc1 (stereo not shown)	70.6
NS(=O)(=O)c1cc(C2(O)NC(=O)c3ccccc32)ccc1Cl (stereo not shown)	81.2

Study 3
Technique: PRP chromatography
Notes: linear fit, 1 mL
Compound	logD 1,9-decadiene/water [log units]
CC(C)C[C@@H]1NC(=O)[C@H](C)NC(=O)[C@H](CC(C)C)NC(=O)[C@H](C(C)C)NC(=O)[C@H](CC(C)C)NC(=O)[C@@H](CC(C)C)NC(=O)[C@H](CC(C)C)NC1=O	0.577
CC(C)C[C@@H]1NC(=O)[C@H](CC(C)C)NC(=O)[C@@H](C(C)C)NC(=O)[C@H](C)NC(=O)[C@H](C(C)C)NC(=O)[C@H](C)NC(=O)[C@H](C)NC1=O	-2.53
CC(C)C[C@@H]1NC(=O)[C@H](C)NC(=O)[C@@H](CCC(=O)N2CCCC2)NC(=O)[C@H](C)NC(=O)[C@H](C)NC(=O)[C@H](CC(C)C)NC(=O)[C@H](CC(C)C)NC1=O	-2.32
CC(C)C[C@@H]1NC(=O)[C@H](C(C)C)NC(=O)[C@H](C)NC(=O)[C@H](CCC(=O)N2CCCC2)NC(=O)[C@@H](CCC(=O)N2CCCC2)NC(=O)[C@H](CC(C)C)NC(=O)[C@@H](CC(C)C)NC1=O	-4.38
CC(C)C[C@@H]1NC(=O)[C@H](C)NC(=O)[C@H](CCC(=O)N2CCCC2)NC(=O)[C@@H](CCC(=O)N2CCCC2)NC(=O)[C@H](CC(C)C)NC(=O)[C@@H](CC(C)C)NC(=O)[C@H](CC(C)C)NC1=O	-1.67
CC(C)C[C@@H]1NC(=O)[C@H](C)NC(=O)[C@H](CCC(=O)N2CCCC2)NC(=O)[C@H](C)NC(=O)[C@H](CC(C)C)NC(=O)[C@H](CC(C)C)NC(=O)[C@@H](C(C)C)NC1=O	-2.32

Study 4
Structure (SMILES): O=C(c1cc2cc(O)ccc2[nH]1)c1cc2cc(O)ccc2[nH]1
Observed: enzyme activity
Mode: inhibitor
Concentration: 0.5 µM
Baseline: control
target	remaining activity [%]
cGMP-dependent protein kinase 1, isoform beta (PRKG1, Homo sapiens, UniProt Q13976)	84.3
STK10 (Homo sapiens, UniProt O94804)	70.3
MAPK9 (Homo sapiens, UniProt P45984)	116
Cyclin-dependent kinase 5, with p25 (CDK5, Homo sapiens, UniProt Q00535)	52.6
GRK3 (Homo sapiens, UniProt P35626)	102
Protein kinase C beta type, isoform beta-I (PRKCB, Homo sapiens, UniProt P05771)	90.4
TGFBR1 (Homo sapiens, UniProt P36897)	93.4
OXSR1 (Homo sapiens, UniProt O95747)	105
TGFBR2 (Homo sapiens, UniProt P37173)	123
CAMK2D (Homo sapiens, UniProt Q13557)	63.7
IKBKB (Homo sapiens, UniProt O14920)	91.3
STK11 (Homo sapiens, UniProt Q15831)	101
CAMKK2 (Homo sapiens, UniProt Q96RR4)	84.2
IKBKE (Homo sapiens, UniProt Q14164)	81.6
Tyrosine-protein kinase Lyn, isoform B (LYN, Homo sapiens, UniProt P07948)	62.7
DAPK1 (Homo sapiens, UniProt P53355)	101
MAP3K3 (Homo sapiens, UniProt Q99759)	96
PRKCA (Homo sapiens, UniProt P17252)	84.1
PRKACA (Homo sapiens, UniProt P17612)	107
STK39 (Homo sapiens, UniProt Q9UEW8)	97.6
DAPK2 (Homo sapiens, UniProt Q9UIK4)	101
NEK2 (Homo sapiens, UniProt P51955)	101
Cyclin-dependent kinase 4, with cyclin D1 (CDK4, Homo sapiens, UniProt P11802)	91.5
CHEK2 (Homo sapiens, UniProt O96017)	80.1

Study 5
Structure (SMILES): CCN(c1nc(N)c(C(=O)N=C(N)N)nc1Cl)C(C)C
Observed: β-arrestin recruitment
Mode: agonist
Technique: PRESTO-Tango
Concentration: 10 µM
Baseline: untreated
target	fold over basal
NMBR (Homo sapiens, UniProt P28336)	1.08
HTR1D (Homo sapiens, UniProt P28221)	0.83
Probable G-protein coupled receptor 153 (GPR153, Homo sapiens, UniProt Q6NV75)	0.83
Proteinase-activated receptor 3 (F2RL2, Homo sapiens, UniProt O00254)	0.74
HTR6 (Homo sapiens, UniProt P50406)	0.24
NPY5R (Homo sapiens, UniProt Q15761)	0.66

Repeated from above (study 5):
target	fold over basal
HTR6 (Homo sapiens, UniProt P50406)	0.24
Proteinase-activated receptor 3 (F2RL2, Homo sapiens, UniProt O00254)	0.74
HTR1D (Homo sapiens, UniProt P28221)	0.83
Probable G-protein coupled receptor 153 (GPR153, Homo sapiens, UniProt Q6NV75)	0.83
NMBR (Homo sapiens, UniProt P28336)	1.08
